# Results pooled from the literature.
# Each numbered part is a random draw from the data of one study; scales do not carry over between parts. Substitutions count along the parent as printed.
# Sequence of UniProt Q05655 (whole entry, looked up): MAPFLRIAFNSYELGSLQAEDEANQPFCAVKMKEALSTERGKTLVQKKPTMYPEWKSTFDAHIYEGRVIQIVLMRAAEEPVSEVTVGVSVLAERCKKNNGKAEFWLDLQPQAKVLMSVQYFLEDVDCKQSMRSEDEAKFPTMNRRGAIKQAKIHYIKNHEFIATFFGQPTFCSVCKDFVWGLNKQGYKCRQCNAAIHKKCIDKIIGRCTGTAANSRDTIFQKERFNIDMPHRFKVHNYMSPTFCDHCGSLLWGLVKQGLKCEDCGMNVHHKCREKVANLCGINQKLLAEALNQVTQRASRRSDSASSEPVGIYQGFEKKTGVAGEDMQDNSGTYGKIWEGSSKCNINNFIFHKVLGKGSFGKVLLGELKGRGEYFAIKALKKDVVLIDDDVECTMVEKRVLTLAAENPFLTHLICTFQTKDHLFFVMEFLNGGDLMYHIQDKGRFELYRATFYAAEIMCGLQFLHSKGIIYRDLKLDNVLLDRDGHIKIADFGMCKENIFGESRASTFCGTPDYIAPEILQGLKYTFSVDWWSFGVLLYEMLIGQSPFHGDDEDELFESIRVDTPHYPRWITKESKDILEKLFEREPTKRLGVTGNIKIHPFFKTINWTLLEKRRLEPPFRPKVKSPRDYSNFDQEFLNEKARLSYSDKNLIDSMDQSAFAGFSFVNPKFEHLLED
# Sequence of UniProt Q15418 (whole entry, looked up): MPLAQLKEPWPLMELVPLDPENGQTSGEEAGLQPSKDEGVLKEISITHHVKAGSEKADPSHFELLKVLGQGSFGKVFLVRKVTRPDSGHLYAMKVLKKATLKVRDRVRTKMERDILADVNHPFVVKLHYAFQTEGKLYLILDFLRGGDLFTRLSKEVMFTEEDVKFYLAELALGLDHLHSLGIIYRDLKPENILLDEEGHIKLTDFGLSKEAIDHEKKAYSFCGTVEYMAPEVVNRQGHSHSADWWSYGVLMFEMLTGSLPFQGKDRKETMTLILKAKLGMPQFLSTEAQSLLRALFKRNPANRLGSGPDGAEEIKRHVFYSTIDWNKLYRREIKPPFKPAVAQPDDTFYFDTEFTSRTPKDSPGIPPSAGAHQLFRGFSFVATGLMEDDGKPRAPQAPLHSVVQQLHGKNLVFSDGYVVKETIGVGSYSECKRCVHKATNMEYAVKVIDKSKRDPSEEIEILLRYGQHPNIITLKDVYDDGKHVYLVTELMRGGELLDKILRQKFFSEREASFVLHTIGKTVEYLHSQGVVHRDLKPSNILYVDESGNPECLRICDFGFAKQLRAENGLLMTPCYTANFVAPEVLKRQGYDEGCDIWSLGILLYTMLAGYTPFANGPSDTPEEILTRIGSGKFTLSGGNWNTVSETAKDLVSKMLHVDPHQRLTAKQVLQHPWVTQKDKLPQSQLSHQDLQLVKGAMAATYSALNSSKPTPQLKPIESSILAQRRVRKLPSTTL
# Sequence of UniProt P45985 (whole entry, looked up): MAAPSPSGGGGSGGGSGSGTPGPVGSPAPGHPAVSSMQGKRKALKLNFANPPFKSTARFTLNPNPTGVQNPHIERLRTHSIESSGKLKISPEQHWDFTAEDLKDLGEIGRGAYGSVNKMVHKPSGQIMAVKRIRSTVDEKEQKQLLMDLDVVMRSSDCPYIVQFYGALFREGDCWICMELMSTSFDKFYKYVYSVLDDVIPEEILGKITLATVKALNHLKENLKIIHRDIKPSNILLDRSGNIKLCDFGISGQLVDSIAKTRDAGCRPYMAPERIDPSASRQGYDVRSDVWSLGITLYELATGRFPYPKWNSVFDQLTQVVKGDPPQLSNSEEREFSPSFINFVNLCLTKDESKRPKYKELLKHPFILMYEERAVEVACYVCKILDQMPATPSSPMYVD
# Sequence of UniProt Q15835 (whole entry, looked up): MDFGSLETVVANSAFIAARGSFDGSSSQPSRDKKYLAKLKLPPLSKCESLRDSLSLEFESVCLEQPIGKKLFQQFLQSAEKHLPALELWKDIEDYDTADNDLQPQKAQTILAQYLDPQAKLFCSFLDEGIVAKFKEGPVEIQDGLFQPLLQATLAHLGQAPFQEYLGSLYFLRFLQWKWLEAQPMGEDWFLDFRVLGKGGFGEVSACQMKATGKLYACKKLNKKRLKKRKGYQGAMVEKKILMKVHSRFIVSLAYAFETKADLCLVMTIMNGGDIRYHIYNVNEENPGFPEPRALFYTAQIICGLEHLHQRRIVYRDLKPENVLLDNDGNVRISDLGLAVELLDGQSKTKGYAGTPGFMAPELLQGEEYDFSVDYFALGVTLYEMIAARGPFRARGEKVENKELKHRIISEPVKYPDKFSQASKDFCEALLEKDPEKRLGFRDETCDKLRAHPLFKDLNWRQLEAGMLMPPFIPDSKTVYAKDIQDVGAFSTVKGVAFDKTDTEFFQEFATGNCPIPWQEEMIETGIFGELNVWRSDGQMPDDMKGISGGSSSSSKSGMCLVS
# Sequence of UniProt Q06418 (whole entry, looked up): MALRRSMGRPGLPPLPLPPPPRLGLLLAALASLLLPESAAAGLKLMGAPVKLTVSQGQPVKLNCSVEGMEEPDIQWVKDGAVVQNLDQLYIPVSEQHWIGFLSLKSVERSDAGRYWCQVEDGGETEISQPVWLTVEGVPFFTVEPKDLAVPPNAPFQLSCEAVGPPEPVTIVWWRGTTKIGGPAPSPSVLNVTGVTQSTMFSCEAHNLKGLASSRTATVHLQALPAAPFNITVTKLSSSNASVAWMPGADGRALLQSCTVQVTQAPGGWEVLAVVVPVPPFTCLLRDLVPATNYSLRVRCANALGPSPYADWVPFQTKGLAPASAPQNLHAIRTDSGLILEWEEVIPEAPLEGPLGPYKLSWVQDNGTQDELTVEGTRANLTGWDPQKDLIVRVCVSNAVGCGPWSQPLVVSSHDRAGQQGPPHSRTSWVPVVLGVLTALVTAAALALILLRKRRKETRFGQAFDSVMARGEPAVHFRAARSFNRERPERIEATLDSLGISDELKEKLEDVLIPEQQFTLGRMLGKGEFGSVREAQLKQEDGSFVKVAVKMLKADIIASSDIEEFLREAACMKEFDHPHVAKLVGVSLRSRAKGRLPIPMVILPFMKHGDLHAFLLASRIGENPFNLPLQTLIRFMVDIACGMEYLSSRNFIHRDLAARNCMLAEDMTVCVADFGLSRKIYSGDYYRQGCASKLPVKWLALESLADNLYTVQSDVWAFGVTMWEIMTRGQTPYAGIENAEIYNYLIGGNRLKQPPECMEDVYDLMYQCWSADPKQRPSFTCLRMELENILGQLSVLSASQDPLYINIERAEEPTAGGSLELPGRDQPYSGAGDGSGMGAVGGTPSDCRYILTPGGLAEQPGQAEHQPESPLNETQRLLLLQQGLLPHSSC

# Sample 1 — effect on: cell-free assay; method: competition with immobilised ligand; concentration: 1 µM
# Structure (SMILES): CO[C@@H](C)c1c(Nc2ccc([C@H](N(C)C(=O)C3CCS(=O)(=O)CC3)C(F)(F)F)cc2)cnc2cc(Cl)nn12
target,remaining binding
"Protein kinase C delta type (PRKCD, Homo sapiens, UniProt Q05655)",79%
"Dual specificity mitogen-activated protein kinase kinase 4 (MAP2K4, Homo sapiens, UniProt P45985)",100%
"Ribosomal protein S6 kinase alpha-1, N-terminal kinase domain (RPS6KA1, Homo sapiens, UniProt Q15418)",71%
"Angiopoietin-1 receptor (TEK, Homo sapiens, UniProt Q02763)",84%
"Tyrosine-protein kinase receptor TYRO3 (TYRO3, Homo sapiens, UniProt Q06418)",100%
"Rhodopsin kinase GRK1 (GRK1, Homo sapiens, UniProt Q15835)",82%
"Hepatocyte growth factor receptor (MET, Homo sapiens, UniProt P08581)",100%

# Sample 2 — target: CREB3, bZIP domain (human); method: DHFR protein complementation; medium: yeast; baseline: wild-type JUN-FOS pair; direction: higher = stronger binding
# Notes: single substitutions, most at no-binding floor
# Starting sequence: JUN, bZIP domain (human); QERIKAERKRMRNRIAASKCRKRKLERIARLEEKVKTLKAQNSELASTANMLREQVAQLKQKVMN; partner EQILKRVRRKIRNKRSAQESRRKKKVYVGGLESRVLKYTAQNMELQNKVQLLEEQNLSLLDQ
Variant,binding fitness [natural log]
R53M,-1.43
A49C,-1.46
K39P,-1.54
E44R,-1.41
L31S,-1.45
E44G,-1.48
E32L,-1.47
R53K,-1.6

# Sample 3 — effect on: enzyme activity; action: inhibitor; concentration: 0.5 µM; baseline: control
# Target: Serine/threonine-protein kinase MRCK alpha (CDC42BPA, Homo sapiens, UniProt Q5VT25)
# Sequence of UniProt Q5VT25 (whole entry, looked up): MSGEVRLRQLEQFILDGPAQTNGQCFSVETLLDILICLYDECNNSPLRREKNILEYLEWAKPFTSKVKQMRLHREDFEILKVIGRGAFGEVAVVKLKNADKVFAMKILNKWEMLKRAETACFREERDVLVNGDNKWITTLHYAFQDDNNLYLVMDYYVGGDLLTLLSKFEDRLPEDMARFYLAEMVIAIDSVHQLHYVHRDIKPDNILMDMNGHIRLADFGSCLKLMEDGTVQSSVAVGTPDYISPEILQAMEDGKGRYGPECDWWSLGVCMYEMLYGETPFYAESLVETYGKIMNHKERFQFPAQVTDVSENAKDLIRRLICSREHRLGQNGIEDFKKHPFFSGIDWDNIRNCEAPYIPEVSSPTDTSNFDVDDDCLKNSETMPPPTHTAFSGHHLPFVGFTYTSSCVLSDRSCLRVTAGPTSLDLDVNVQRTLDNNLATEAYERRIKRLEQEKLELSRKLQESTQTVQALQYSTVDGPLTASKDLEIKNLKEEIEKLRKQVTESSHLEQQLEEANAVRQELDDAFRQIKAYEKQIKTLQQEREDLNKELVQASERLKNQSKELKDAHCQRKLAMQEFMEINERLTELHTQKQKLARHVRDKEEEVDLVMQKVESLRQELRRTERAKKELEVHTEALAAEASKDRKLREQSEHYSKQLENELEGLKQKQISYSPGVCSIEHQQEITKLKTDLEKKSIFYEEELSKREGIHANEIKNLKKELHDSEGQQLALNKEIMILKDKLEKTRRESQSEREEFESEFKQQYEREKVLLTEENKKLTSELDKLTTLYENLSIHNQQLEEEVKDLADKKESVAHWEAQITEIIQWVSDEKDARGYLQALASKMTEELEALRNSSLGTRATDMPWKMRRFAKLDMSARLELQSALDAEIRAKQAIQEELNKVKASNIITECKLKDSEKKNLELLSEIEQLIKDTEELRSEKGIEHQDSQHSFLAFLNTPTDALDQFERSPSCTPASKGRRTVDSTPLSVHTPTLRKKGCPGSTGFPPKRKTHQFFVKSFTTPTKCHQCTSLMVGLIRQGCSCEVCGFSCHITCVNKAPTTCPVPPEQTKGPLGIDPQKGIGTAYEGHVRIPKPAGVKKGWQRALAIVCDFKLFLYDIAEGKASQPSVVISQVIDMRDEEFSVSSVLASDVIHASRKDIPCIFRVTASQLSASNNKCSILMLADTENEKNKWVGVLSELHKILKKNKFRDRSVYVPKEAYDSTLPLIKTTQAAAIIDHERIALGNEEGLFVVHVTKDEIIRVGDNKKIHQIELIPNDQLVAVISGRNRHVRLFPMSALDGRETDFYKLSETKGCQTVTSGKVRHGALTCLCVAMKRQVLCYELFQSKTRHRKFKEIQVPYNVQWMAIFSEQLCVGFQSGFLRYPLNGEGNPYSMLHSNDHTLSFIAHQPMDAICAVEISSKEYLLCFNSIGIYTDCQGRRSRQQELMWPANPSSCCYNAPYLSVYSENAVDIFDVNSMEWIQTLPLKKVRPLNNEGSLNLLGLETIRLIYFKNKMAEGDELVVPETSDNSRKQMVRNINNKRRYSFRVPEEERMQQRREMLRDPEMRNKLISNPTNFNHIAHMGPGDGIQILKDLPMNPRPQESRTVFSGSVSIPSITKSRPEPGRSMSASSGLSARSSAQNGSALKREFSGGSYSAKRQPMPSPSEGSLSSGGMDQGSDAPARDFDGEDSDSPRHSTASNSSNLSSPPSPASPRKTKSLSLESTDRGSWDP
SMILES,remaining activity [%]
C#Cc1cccc(Nc2ncnc3cc(OCCOC)c(OCCOC)cc23)c1,88.5
Nc1[nH]nc2nc3ccccc3nc12,95.4
NCCNc1ncc(C(N)=O)c(Nc2cccc(C(F)(F)F)c2)n1,98.9
CN(C)c1ccc(C=C2C(=O)Nc3ccccc32)cc1,101
COc1ccc(C(=O)Nc2sc3c(c2C(N)=O)CCCC3)cc1OC,81.8
COc1ccc(OC)c2c(=S)c3ccccc3[nH]c12,82.7
Nc1ncnc2n[nH]c(Nc3ccc(F)cc3)c12,103
Oc1ccc(-c2nc(-c3ccncc3)c(-c3ccc(F)cc3)[nH]2)cc1,94
COc1cc2ncnc(Nc3ccc(Oc4ccccc4)cc3)c2cc1OC,95.4
Cc1ccc(Nc2nccc(N(C)c3ccc4c(C)n(C)nc4c3)n2)cc1S(N)(=O)=O,85.4
O=C(CCCc1ccc(-c2ccccc2F)cc1)Nc1ccc(O)cc1,103
COc1cc2nccc(Oc3ccc(NC(=S)NC(=O)c4ccccc4C)cc3)c2cc1OC,93.9
CCOC(=O)c1c(C)[nH]c(/C=C2\C(=O)Nc3ccccc32)c1C,85.7
OCC(O)CCON=C1C(c2c(O)[nH]c3ccccc23)=Nc2ccccc21 (stereo not drawn),88.6
Cc1nc(-c2ccccc2)c(-c2ccncc2)o1,91.9
O=S(=O)(c1cccc2cnccc12)N1CCCNCC1,104

# Sample 4 — method: protein-binding microarray; molecule type: double-stranded DNA, one strand shown; medium: in vitro; concentration: 2540 nM top; notes: 60-bp whole probe; with: salmon DNA 0.4 mg/ml; baseline: random background probes; direction: higher = stronger binding; all sequences stand within: GCCTAGCAC … GTCTTGATTCGCTTGACGCTGCTG
# Target: Interferon regulatory factor 3, full length, phosphomimetic (IRF3, Homo sapiens, UniProt Q14653, residues 1-427, S386D/S396D/S398D/S402D/T404D/S405D)
# Construct (chain): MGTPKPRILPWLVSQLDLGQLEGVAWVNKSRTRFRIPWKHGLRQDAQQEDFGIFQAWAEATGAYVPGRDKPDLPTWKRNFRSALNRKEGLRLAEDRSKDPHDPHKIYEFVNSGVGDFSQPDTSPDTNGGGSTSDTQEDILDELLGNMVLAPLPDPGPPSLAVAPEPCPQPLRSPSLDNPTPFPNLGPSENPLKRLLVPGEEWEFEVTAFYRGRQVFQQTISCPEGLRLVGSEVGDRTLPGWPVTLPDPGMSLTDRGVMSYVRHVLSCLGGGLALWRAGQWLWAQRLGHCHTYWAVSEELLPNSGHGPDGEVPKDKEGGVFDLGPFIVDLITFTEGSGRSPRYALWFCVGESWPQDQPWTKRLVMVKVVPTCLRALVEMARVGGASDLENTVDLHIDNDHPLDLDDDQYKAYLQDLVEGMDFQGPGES
Strand,fitted relative affinity [z-score]
TTAGGTCTCGGTATCGGTTAGTGCTAG,2.6
CTGTTTTTCTCACCACATTTTGTGCTA,1.48
TTAGGTTTCGTCTATCGGTTAGTGCTA,2.39
GACGGTCTCGGTTTCGAGACGTGCTAG,3.63
CCAACTCGCCTTTTTTGTTGGTGCTAG,2.83
TCAGTTTCGTATCTTCATACTGTGCTA,7.46
TTAGATTTCAGAATCGATTAGTGCTAG,2.42
TTAGGTTTAGGGTATCGGTTAGTGCTA,0.363
